Assay results pooled from the literature.
Each numbered part is a random draw from the data of one study; scales do not carry over between parts.

Study 1
Target: Interferon regulatory factor 5, full length, phosphomimetic (IRF5, Homo sapiens, UniProt Q13568-2, residues 1-514, K96S/S451D/S453D/S456D/S462D)
Method: protein-binding microarray
Molecule type: double-stranded DNA, one strand shown
Sample: in vitro
Tested at: 250 nM
Notes: 60-bp whole probe
With: salmon DNA 0.4 mg/ml
Baseline: random background probes
Reading: higher = stronger binding
Constant ends, left off below: GCCTAGCAC … GTCTTGATTCGCTTGACGCTGCTG
Oligonucleotide | log fluorescence [z-score]
TGAGGACTGGGTATCGGTTAGTGCTAG | 4.13
TTAGATTTCGGGTATCGAATAGTGCTA | 6.28
GACGATTTCGGGTTTCGAAACGTGCTA | 6.12
TTCTGTATGGGCATTTTTCTAGTGCTA | 0.37
TTAGATCTCAGACTGGCTTAGTGCTAG | -0.332
TTAGATTTCAGGTTTCGATTAGTGCTA | 7.44
GACAGTTTCGACTATCGGGACGTGCTA | 9.28
TCTCTTTCCTTACTTCCCAATGTGCTA | 1.94
GACGAACTGCTACTGCTGACGTGCTAG | -0.202
TTAGATAACAGTATCGATTAGTGCTAG | 6.59

Study 2
Target: Histone acetyltransferase KAT6A, winged helix 1, GST fusion (KAT6A, Homo sapiens, UniProt Q92794, residues 1-85)
Method: protein binding microarray
Molecule type: double-stranded DNA, one strand shown
Sample: in vitro
Tested at: not given
Notes: 8-mer, flanks averaged, mean of 2 arrays, mostly near background
Baseline: not given
Reading: higher = stronger binding
Construct (chain): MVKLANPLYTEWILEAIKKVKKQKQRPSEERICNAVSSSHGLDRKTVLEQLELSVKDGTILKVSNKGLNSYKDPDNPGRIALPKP
Oligonucleotide | E-score
GTCTCTGA | -0.0923
AATAGTAG | -0.11
TGAGAAAA | -0.186
CTTTGTAC | -0.196
ACCATAAT | -0.0445
TACGGGAA | 0.387
ACGGCATA | 0.284

Study 3
Target: Sal-like protein 4, full length isoform B (SALL4, Homo sapiens, UniProt Q9UJQ4-2, residues 1-616)
Method: universal PBM
Molecule type: double-stranded DNA, one strand shown
Sample: in vitro
Tested at: not given
Notes: 8-mer, flanks averaged, mean of replicates
Reading: higher = stronger binding
Oligonucleotide | E-score
ATAAAGGG | 0.161
AATGGATA | 0.193
ATTGTATG | 0.277
AAGCGCAA | 0.031
CGCTGTCA | -0.291
CTCTTCTA | 0.0729
GAGACAGA | 0.0362
GCCATAAA | 0.162
CTCATAAA | 0.263
CTTTCTGA | 0.159

Single results of other studies
Substance | target | assay | test system | conditions | scale | endpoint | value
PhoQ, residues 284 288 289 292 302 303 TLMATV | PhoP, residues 12 14 15 18 19 NQCAL (Escherichia coli, UniProt P23836) | Sort-seq, refers to: YFP reporter | E. coli | PhoQ-PhoP variant library, with: 10 µM Mg2+ | baseline: high Mg2+ state, higher = stronger signaling | fold induction | 4.07
